Assay results collected from several papers.
Each numbered part is a random draw from the data of one study; scales do not carry over between parts. Changes are numbered by the printed parent chain.

Set 1 — method: competition protein-binding microarray; molecule type: double-stranded DNA, one strand shown; matrix: in vitro; concentration: 2 µM; with: Pho4 competitor, 0.05 µM; direction: higher = stronger binding
Target: Centromere-binding protein 1, full length, His-tagged (CBF1, Saccharomyces cerevisiae, UniProt P17106, residues 1-351)
Sequence of UniProt P17106 (whole entry, looked up): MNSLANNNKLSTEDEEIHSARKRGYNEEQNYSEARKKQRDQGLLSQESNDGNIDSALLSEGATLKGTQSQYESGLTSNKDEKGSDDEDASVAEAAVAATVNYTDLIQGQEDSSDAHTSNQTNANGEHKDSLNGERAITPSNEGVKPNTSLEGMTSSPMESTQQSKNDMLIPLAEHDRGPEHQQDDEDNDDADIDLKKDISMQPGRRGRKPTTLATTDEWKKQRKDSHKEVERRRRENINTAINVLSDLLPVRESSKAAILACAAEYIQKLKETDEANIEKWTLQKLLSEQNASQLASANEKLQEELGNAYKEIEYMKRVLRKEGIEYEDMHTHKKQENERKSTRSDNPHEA
Notes: whole 60-bp probe, lowest competitor level
`CTAACGAAGGTTTGTCTAGTGGGTGACAAGCCAAGTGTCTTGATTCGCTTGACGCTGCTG` has a fluorescence intensity of 77.5 a.u.
For `TGCGCAACAACTTGTCTTGTGGGTGTATGTCTAGAAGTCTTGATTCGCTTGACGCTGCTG`, the fluorescence intensity was 76.4 a.u.
For `CATACCCAACCTTGTCACGGTACTTAAGATATTTGTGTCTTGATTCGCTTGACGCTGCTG`, the fluorescence intensity was 227 a.u.
`CGTCCTAGTGATTGTCACGGGACTTCCATGAGGAAGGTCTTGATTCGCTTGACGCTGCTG` gave a fluorescence intensity of 1340 a.u.
For `CATGATTTTTGCTTTGGCATTGTTCTGGTATGGTATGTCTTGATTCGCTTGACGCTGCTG`, the fluorescence intensity was 145 a.u.
With `CATGGGGCGGTAGGGTTCGTGATGGTTTTTCTGCCCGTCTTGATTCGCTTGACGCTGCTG` the fluorescence intensity was 99.7 a.u.
For `GATTCAGATCTGAGACTTGGGTAGCATTTGACAGACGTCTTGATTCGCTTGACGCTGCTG`, the fluorescence intensity was 80.9 a.u.
`AAATTACTAAGTTGCCTAGTGGGTGACGCCGTATGAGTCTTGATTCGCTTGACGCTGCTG` gave a fluorescence intensity of 50.2 a.u.
For `CTTCTGTAAATTTGGCATGTGGGTGGACGCGCCCCGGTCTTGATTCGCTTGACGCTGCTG`, the fluorescence intensity was 99.9 a.u.
`ACTGGAAACGAGCAACACATGTCCCACTTTGCCACAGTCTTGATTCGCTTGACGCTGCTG` gave a fluorescence intensity of 109 a.u.

Set 2 — method: protein-binding microarray; molecule type: double-stranded DNA, one strand shown; matrix: in vitro; concentration: not given; direction: higher = stronger binding
Target: Hepatocyte nuclear factor 3-beta, forkhead domain (FOXA2, Homo sapiens, UniProt Q9Y261, residues 142-269)
Notes: k-mer, scored over probes, only values ≥0.25
Target sequence (chain): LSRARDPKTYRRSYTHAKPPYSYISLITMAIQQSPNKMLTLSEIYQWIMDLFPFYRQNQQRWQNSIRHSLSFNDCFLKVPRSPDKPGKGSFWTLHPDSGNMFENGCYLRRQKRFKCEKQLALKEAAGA
With `ATTAAAGA` the E-score was 0.262.
With `ACATCAAA` the E-score was 0.266.
`ATACGGTA` gave an E-score of 0.265.
For `ATGATGTA`, the E-score was 0.312.
`CGTATGTA` gave an E-score of 0.26.
With `ACACATTC` the E-score was 0.25.
For `ATTTGGTA`, the E-score was 0.304.
`ATACTACA` gave an E-score of 0.297.
`AAGTAATC` gave an E-score of 0.254.
The E-score of `AATATCGA` is reported as 0.323.
`CAATACAC` gave an E-score of 0.326.
`ATATGGTG` has an E-score of 0.269.
The E-score of `TACGCTAA` is reported as 0.308.
With `ATCGTAAT` the E-score was 0.287.

Set 3 — method: RNA Bind-n-Seq; molecule type: RNA; matrix: in vitro; concentration: 200 nM; notes: whole 134-nt RNA, ends assumed; with: 150 mM LiCl; reference: input library; direction: higher = stronger binding; library: 7-deaza-guanosine replaces G
Target: Ras GTPase-activating protein-binding protein 1, full length (G3BP1, Homo sapiens, UniProt Q13283)
Sequence of UniProt Q13283 (whole entry, looked up): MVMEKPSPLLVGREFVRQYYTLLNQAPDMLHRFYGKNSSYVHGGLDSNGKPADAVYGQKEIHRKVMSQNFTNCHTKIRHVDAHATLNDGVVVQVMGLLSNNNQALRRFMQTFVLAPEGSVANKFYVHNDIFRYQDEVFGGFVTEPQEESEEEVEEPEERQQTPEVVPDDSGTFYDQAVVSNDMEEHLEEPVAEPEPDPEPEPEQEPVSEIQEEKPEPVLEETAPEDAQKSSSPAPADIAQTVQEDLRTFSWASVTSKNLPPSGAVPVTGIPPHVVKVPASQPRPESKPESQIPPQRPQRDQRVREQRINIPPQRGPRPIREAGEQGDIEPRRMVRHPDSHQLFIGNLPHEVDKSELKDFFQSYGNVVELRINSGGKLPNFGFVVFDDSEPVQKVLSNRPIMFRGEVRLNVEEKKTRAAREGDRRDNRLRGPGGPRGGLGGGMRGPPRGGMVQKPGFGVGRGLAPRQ
`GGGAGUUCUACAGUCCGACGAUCAGUCCUGUGCUACACAUCGUAUGUACCGAAUCGGUUUUUGGAAAAAGGAAAAAAAGGAAAGUAUUAUGUUACGCCGUUCGGAUCUGCACUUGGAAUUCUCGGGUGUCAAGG` gave a log2 enrichment of -1.8.
The log2 enrichment of `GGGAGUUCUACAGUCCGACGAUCUAACUUUAGAGGAGGAUCUGAUGGAUAUGGCAGUGGACGUGGAUCUGGGGAUGGCUAUAAUGGGUAUGGAGGAGGACCUGGAGGUGGCAAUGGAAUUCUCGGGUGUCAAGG` is reported as -0.539.
The log2 enrichment of `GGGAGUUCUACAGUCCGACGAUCUACUCUCUCGGGGCUGGAAGCUUCCUGACUGAAGAUCUCUCUGCACUUGGGGUUCUUUCUAGAACAUUUUCUAGUCCCCCAACACCCUUUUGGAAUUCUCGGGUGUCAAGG` is reported as 0.0894.
With `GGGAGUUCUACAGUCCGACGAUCAGUCCUGUGCUACACAUCGUAUGUACCGAAUCGGGAAAAAGGAAAAAGGGAAAAAGGGAAAGUAUUAUGUUACGCCGUUCGGAUCUGCACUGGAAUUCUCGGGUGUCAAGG` the log2 enrichment was -0.662.
With `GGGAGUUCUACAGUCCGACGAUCCACAGACAACACGCACCCACACAGACACAGAGGGAAGGGGUCGGGAUGGGGACAGGGUGCACAGCAGGGCGGGGUAGGACCCCAGCCCCUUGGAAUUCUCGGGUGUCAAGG` the log2 enrichment was -0.574.
`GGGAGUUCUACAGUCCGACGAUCCCUCAAGUCCUGUGCUACACAUCGUAUGUACCGAAUCGGCGGGCGGGCGGGGAAAGUAUUAUGUUACGCCGUUCGGAUCUGCACUUCCAGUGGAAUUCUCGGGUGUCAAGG` gave a log2 enrichment of 0.601.
For `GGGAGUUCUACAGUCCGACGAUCGCAGGAAGUAAAAACAAAUGGAAAUGCUUCGGAUAGUGGCAGGGGUGGGGGUUGCUAAGGAAAGGGUAGGAUGGGAGUGGGUAAAGAGUUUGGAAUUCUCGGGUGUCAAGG`, the log2 enrichment was 0.0616.
For `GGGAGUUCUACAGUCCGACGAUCUCCUGUGCUACACAUCGUAUGUACCGAAUCGGGUUUGGGAAAAAAAGGGAAAAAAAGGGAAAGUAUUAUGUUACGCCGUUCGGAUCUGCAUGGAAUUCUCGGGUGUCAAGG`, the log2 enrichment was 0.243.

Set 4 — method: DHFR PCA, dose-response; matrix: yeast; notes: Hill fit, mean, not affinity; with: (+)-ABA, dose series; direction: lower = more sensitive
Target: ABI1, truncated, D143A, DHFR fusion (Arabidopsis thaliana, UniProt P49597)
Starting sequence: PYL1, truncated, DHFR fusion (Arabidopsis thaliana, UniProt Q8VZS8); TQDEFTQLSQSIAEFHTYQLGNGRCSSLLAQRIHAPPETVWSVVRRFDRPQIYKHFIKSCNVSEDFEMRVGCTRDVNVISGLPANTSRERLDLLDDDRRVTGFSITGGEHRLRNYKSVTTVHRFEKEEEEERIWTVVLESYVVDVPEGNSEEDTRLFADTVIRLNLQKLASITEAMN
`G71F` gave an ABA EC50 of 196 µM.
For `Y53P`, the ABA EC50 was 401 µM.
`V70S` has an ABA EC50 of 17.6 µM.
The ABA EC50 of `M68E` is reported as 25.5 µM.
`E127G` has an ABA EC50 of 2.34 µM.
The ABA EC50 of `R123E` is reported as 1.6 µM.
`L8N` gave an ABA EC50 of 12.1 µM.
`E130N` gave an ABA EC50 of 2.76 µM.
`L164Q` has an ABA EC50 of 0.994 µM.
The ABA EC50 of `T160C` is reported as 6.25 µM.
For `D3V`, the ABA EC50 was 4.52 µM.
The ABA EC50 of `R132Q` is reported as 0.852 µM.
`Y18D` has an ABA EC50 of 40 µM.
For `E139R`, the ABA EC50 was 632 µM.
`V136L` gave an ABA EC50 of 2.07 µM.
With `V44I` the ABA EC50 was 3.83 µM.
`L156I` has an ABA EC50 of 2.13 µM.
`P37N` has an ABA EC50 of 185 µM.
`Q167T` gave an ABA EC50 of 1.59 µM.

Set 5 — target: CCNB2, cyclin fold, Cln2 fusion (human); method: yeast growth competition, sequencing; matrix: yeast; notes: weak parent motif; reference: not given; direction: higher = stronger binding
Starting sequence: GMNC docking peptide (human); KNAKRNLSSEFAN
For `L7R`, “normalised enrichment score” read 0.305.
`E10H` — result for “normalised enrichment score”: 0.261.
`K4P` — result for “normalised enrichment score”: 0.258.
`R5A`: “normalised enrichment score” 0.301.
`S8Q` — result for “normalised enrichment score”: 0.787.
Under “normalised enrichment score”, `E10L` is recorded as -0.0732.
For `S9W`, “normalised enrichment score” read 0.812.
For `L7M`, “normalised enrichment score” read 0.354.
Under “normalised enrichment score”, `F11T` is recorded as 0.348.
Under “normalised enrichment score”, `S8M` is recorded as 1.33.
Under “normalised enrichment score”, `E10P` is recorded as -0.0681.
`A12Y`: “normalised enrichment score” 0.197.
Under “normalised enrichment score”, `A12W` is recorded as 0.24.
`F11R` — result for “normalised enrichment score”: 0.192.
`R5S` — result for “normalised enrichment score”: 0.668.
Under “normalised enrichment score”, `N6H` is recorded as -0.0503.

For quick reference, copied from above (set 2):
`ATATGGTG` has an E-score of 0.269.
`CGTATGTA` gave an E-score of 0.26.
For `ATTTGGTA`, the E-score was 0.304.
With `ATCGTAAT` the E-score was 0.287.
`ATACGGTA` gave an E-score of 0.265.
`ATACTACA` gave an E-score of 0.297.
The E-score of `AATATCGA` is reported as 0.323.
For `ATGATGTA`, the E-score was 0.312.
The E-score of `TACGCTAA` is reported as 0.308.
`AAGTAATC` gave an E-score of 0.254.
With `ACATCAAA` the E-score was 0.266.
